Measured values gathered from unrelated publications.
A part holds a random share of what one study measured.
Sequence of UniProt Q9P286 (whole entry, looked up): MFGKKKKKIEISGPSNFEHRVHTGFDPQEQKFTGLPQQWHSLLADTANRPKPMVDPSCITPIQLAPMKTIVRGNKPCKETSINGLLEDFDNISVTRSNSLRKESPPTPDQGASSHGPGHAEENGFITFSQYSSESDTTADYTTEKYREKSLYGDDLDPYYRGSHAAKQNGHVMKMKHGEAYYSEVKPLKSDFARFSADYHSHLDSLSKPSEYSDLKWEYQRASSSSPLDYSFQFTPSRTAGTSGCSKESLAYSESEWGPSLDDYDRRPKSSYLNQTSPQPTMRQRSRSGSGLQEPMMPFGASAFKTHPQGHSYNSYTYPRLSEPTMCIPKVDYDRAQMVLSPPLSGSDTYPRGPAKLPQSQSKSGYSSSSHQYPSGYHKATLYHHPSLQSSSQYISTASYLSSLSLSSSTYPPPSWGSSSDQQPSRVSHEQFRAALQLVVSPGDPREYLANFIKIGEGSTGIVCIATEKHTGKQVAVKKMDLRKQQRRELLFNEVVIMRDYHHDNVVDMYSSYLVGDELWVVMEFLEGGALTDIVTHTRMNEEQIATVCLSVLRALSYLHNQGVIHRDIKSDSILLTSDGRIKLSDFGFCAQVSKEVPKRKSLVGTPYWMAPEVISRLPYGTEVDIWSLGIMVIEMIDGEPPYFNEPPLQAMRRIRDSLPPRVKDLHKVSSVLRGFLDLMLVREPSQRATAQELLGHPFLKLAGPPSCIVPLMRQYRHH
Sequence of UniProt P42336 (whole entry, unmodified, looked up): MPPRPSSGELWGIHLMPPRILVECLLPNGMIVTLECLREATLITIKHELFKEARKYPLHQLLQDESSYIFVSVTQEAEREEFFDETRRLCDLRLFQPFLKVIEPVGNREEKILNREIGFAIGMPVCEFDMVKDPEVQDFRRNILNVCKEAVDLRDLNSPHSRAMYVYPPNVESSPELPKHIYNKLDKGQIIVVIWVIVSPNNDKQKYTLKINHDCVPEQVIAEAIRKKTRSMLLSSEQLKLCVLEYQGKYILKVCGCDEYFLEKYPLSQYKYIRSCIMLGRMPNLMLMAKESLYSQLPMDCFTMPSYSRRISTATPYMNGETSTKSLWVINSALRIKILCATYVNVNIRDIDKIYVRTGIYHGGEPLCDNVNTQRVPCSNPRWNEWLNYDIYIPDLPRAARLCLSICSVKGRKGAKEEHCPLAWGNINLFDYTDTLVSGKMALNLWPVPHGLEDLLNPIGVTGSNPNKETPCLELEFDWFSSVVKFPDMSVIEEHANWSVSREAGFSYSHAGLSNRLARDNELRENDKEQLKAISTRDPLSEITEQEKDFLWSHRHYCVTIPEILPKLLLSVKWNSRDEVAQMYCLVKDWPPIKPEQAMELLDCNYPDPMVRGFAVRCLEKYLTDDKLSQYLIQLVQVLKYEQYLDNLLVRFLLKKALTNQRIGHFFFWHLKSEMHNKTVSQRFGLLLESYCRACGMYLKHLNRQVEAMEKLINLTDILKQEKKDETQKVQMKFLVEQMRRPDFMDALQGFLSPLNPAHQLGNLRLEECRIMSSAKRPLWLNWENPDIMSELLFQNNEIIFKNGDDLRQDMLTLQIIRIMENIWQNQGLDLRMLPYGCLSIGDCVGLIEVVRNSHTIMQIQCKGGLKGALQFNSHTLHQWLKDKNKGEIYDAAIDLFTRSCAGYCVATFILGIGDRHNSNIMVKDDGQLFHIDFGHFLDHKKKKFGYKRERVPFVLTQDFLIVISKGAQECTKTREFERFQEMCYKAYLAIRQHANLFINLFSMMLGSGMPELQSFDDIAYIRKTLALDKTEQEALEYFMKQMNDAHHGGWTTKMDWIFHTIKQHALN
Sequence of UniProt Q9UK32 (whole entry, looked up): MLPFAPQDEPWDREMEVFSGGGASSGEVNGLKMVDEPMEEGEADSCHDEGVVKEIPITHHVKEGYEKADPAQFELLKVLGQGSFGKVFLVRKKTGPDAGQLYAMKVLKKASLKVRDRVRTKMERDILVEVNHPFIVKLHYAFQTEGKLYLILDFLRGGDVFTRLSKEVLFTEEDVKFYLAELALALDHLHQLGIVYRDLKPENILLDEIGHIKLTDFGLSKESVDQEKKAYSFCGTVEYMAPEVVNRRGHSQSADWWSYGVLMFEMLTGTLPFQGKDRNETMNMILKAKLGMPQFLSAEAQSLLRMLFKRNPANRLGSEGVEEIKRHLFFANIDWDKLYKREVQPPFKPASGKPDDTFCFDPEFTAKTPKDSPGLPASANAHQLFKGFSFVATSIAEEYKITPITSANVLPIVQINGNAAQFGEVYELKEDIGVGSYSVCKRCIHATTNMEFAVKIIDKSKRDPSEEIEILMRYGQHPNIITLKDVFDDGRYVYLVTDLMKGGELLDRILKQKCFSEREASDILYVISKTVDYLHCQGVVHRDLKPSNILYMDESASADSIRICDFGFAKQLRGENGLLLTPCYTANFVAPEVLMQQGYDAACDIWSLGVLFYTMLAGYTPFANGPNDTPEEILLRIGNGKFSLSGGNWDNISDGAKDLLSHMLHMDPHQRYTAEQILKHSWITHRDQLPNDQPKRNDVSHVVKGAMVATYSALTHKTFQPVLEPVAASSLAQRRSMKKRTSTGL
Sequence of UniProt Q08881 (whole entry, looked up): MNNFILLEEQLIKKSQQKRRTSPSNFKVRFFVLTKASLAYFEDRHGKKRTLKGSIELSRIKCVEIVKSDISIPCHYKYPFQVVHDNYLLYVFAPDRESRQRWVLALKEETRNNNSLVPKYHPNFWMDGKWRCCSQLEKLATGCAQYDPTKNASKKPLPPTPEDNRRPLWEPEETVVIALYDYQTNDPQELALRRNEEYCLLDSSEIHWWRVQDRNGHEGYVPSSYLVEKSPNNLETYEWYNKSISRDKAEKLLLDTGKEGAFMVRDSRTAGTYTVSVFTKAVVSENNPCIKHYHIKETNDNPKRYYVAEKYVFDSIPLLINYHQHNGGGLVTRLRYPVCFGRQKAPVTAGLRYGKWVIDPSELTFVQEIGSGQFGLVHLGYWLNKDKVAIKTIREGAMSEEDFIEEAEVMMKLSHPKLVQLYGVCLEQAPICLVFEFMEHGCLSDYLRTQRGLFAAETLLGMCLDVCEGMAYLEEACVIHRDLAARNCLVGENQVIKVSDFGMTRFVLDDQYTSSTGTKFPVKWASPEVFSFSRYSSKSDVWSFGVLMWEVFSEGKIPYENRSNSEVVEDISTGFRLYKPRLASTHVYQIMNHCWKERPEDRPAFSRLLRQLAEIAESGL
Sequence of UniProt Q92918 (whole entry, looked up): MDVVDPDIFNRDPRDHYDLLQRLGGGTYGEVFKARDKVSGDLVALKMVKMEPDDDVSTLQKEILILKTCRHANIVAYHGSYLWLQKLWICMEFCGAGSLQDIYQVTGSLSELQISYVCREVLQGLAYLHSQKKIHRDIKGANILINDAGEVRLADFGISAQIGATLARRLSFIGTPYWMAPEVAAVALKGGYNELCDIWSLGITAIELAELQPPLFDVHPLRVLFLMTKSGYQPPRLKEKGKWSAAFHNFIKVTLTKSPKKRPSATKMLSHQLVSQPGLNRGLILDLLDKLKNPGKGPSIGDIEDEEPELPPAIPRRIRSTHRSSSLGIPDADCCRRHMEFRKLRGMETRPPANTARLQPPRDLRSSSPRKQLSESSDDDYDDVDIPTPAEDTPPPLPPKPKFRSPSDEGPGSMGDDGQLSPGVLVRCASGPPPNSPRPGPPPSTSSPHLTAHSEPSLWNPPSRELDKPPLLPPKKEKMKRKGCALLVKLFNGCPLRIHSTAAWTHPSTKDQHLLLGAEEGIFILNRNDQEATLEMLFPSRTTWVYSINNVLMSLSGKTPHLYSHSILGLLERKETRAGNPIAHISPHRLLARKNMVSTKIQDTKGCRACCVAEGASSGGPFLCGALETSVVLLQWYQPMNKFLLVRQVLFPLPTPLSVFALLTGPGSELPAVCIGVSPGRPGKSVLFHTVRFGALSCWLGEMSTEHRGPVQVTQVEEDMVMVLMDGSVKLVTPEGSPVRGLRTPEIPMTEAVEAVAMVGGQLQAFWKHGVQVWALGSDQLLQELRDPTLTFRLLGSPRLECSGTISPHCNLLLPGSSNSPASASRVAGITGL
Sequence of UniProt P61075 (whole entry, looked up): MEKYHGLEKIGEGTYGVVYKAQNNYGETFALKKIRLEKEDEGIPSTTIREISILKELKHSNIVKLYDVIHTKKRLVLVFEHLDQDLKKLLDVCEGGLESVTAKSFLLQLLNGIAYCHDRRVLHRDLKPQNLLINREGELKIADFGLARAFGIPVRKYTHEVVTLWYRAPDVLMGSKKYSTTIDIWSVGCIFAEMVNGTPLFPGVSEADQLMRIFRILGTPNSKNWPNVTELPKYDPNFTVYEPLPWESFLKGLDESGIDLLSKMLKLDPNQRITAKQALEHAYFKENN
Sequence of UniProt Q04771 (whole entry, looked up): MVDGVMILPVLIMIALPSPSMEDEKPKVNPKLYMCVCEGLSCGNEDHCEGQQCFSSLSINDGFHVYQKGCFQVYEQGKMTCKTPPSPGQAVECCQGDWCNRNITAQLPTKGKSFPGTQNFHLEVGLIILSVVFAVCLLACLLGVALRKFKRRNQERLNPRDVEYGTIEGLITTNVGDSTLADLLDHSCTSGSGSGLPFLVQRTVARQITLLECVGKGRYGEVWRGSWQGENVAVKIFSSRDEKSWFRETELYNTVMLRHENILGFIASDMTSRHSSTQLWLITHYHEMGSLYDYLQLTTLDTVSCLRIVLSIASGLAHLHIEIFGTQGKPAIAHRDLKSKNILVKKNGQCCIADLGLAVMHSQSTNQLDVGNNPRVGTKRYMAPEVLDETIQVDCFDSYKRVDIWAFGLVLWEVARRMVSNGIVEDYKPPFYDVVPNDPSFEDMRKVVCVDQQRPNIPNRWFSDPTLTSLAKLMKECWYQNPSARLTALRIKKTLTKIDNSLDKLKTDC

Study 1
SMILES: CCCCN(CCCC)C(=O)CN1C[C@H](c2cc(OC)c3c(c2)OCO3)[C@@H](C(=O)O)[C@@H]1CC(C)(C)CCC
Read-out: cell-free assay
Technique: competition with immobilised ligand
Concentration: 1 µM
Quantity: remaining binding
EPHB2 (Homo sapiens, UniProt P29323): 100%
STK10 (Homo sapiens, UniProt O94804): 100%
Ribosomal protein S6 kinase alpha-6, C-terminal kinase domain (RPS6KA6, Homo sapiens, UniProt Q9UK32): 100%
ITK (Homo sapiens, UniProt Q08881): 100%
MAP4K1 (Homo sapiens, UniProt Q92918): 90.6%
LATS2 (Homo sapiens, UniProt Q9NRM7): 100%
FLT3 (Homo sapiens, UniProt P36888, K663Q): 100%
PAK5 (Homo sapiens, UniProt Q9P286): 93.8%

Study 2
Read-out: AlphaScreen signal
Technique: AlphaScreen counter screen
Sample: His6 peptide without bromodomain
Concentration: 50 µM
Setting: assay interference check
Quantity: inhibition
N#CCCc1ccc2c(c1)-c1[nH]c3ccc([N+](=O)[O-])cc3c1CC(=O)N2: 8.45%
Nc1nc(Nc2ccccc2)sc1C(=O)c1ccc(Cl)s1: 66%
Cc1ccc(NS(=O)(=O)c2cc(C(=O)O)c(Cl)cc2Cl)c(O)c1: 15.7%
O=C1Nc2ccc(S(=O)(=O)O)cc2C1=C1Nc2ccccc2C1=NO: 76.2%
Nc1ncnc2c1c(I)cn2[C@@H]1O[C@H](CO)[C@@H](O)[C@H]1O: 6.95%
COc1ccc(N(C)C(=S)Nc2ccc3nc[nH]c(=O)c3c2)cc1: 10.3%
N#CC1(c2ccc(NC(=O)c3cccnc3NCc3ccncc3)cc2)CCCC1: 13.9%
CC(C)n1cnc2c(NCc3ccccc3)nc(NCCCO)nc21: 19.4%

Study 3
Target: Serine/threonine-protein kinase PAK 5 (PAK5, Homo sapiens, UniProt Q9P286)
Read-out: enzyme activity
Mode: inhibitor
Concentration: 0.5 µM
Relative to: control
Quantity: remaining activity
Cc1nc(-c2ccccc2)c(-c2ccncc2)o1: 96.1%
CN(C)c1ccc(C=C2C(=O)Nc3ccccc32)cc1: 101%
COc1ccc(OC)c2c(=S)c3ccccc3[nH]c12: 82.9%
CO[C@H]1C[C@@H]2CC[C@@H](C)[C@@](O)(O2)C(=O)C(=O)N2CCCC[C@H]2C(=O)O[C@H]([C@H](C)C[C@@H]2CC[C@@H](O)[C@H](OC)C2)CC(=O)[C@H](C)/C=C(\C)[C@@H](O)[C@@H](OC)C(=O)[C@H](C)C[C@H](C)/C=C/C=C/C=C/1C: 106%
NCCNc1ncc(C(N)=O)c(Nc2cccc(C(F)(F)F)c2)n1: 57.3%
O=c1c2ccccc2[nH]c(=S)n1CCN1CCC(=C(c2ccc(F)cc2)c2ccc(F)cc2)CC1: 97.4%
Cc1cccc(-c2[nH]c(C(C)(C)C)nc2-c2ccc3c(c2)OCO3)n1: 92.7%

Study 4
SMILES: O=C(Nc1ccccc1)Nc1cccc(Oc2ccc3nccn3n2)c1
Concentration: 1 µM
Quantity: remaining binding
RIPK1 (Homo sapiens, UniProt Q13546); competitive binding panel; relative to: vehicle: 98%
CRK2 (Plasmodium falciparum, UniProt P61075); competitive binding, scanMAX; Plasmodium falciparum PK5, 1000 nM: 77%
PIK3CA (Homo sapiens, UniProt P42336, H1047L); competitive binding panel; relative to: vehicle: 100%
ACVR1 (Homo sapiens, UniProt Q04771); competitive binding panel; relative to: vehicle: 100%
PIK3CA (Homo sapiens, UniProt P42336); competitive binding panel; relative to: vehicle: 100%

A few entries again (study 3):
O=c1c2ccccc2[nH]c(=S)n1CCN1CCC(=C(c2ccc(F)cc2)c2ccc(F)cc2)CC1: 97.4%
CN(C)c1ccc(C=C2C(=O)Nc3ccccc32)cc1: 101%
